Measured values gathered from unrelated publications.
Numbers after ± are the reported error.

Cn1cc(Nc2nccc(-c3ccc4c(c3)CN(C3COC3)CC[C@H]4NC(=O)c3cn(C(C)(C)C)nn3)n2)cn1: “transitional B cell count change” 1040% (human, whole blood; 50 mg twice daily, day 7; relative to: pre-dose baseline).
The AUC of C=CC(=O)N(C)CCOc1c(N)ncnc1-c1cc(F)cc(NC(=O)c2ccc(C3CC3)cc2F)c1C is reported as 1230 ng·h/mL (human, plasma; oral, 600 mg once daily, day 12).
C=CC(=O)N1CCC(c2ccc(C(N)=O)c(-c3ccc(Oc4ccccc4)cc3)n2)CC1: “incidence of grade ≥3 TRAEs” 0% (CTCAE 4.03; patients with relapsed/refractory MCL; oral, 100 mg twice daily).
For CNCCOC12CC3(C)CC(C)(CC(Cn4ncc(-c5ccc(N6CCc7cccc(C(=O)Nc8nc9ccccc9s8)c7C6)nc5C(=O)O)c4C)(C3)C1)C2, “mean arterial pressure change” read -8% (beagle dog, male, anaesthetised; intravenous bolus, 0.03 mg/kg, 135 min; relative to: baseline).
O=C(Nc1nc2cccc(-c3ccc(CN4CCS(=O)(=O)CC4)cc3)n2n1)C1CC1 — result for “treatment-emergent adverse events”: 0% (refers to: blood amylase increased; rheumatoid arthritis patients; oral, 200 mg once daily, 4 weeks, any relatedness).
Under “participants with any serious TEAE”, CN1C(=O)[C@@H](NC(=O)c2nnc(Cc3ccccc3)[nH]2)COc2cccnc21 is recorded as 0% (phase I multiple ascending dose; human, male and female; oral, 50 mg, 14 days).
For COc1ccc([C@@H](O)c2cc(-c3ncnc4cc(N5CCOCC5)ccc34)c(F)cc2Cl)nn1, “blood lymphatic disorder TEAE” read 33% (locally advanced rectal cancer patients; 100 mg, added: capecitabine and radiotherapy).
With O=C(N[C@H](Cc1c[nH]c2ccccc12)C(=O)Nc1ccncc1)c1ccc(N2CCN(c3ccc(F)cc3F)CC2)cc1F the concentration was 89.2 µM (Swiss Webster mouse, female, intestine; oral, 50 mg/kg, 8 h, 20% HPβCD vehicle).
CC(=O)N(C)[C@H]1CCN(C(=O)c2cnc3c(c2)C[C@](C)(c2ccc(F)cc2)N3)C1: “lens nucleus opacity diameter” less than 1 mm (human, left eye; oral, 15 mg).
O=C(O)CCCCCCCCCCCCCCCCC(=O)O: “relative peak deviation” 40.5 ± 8.6% (human, plasma; endogenous control diurnal; relative to: daily mean concentration).
With COc1ccc2c(=O)n(C)c(-c3ccccc3)nc2c1 the tissue/plasma ratio was 28.6 (Sprague-Dawley rat, male, liver; oral, 30 mg/kg, 2 h; relative to: liver over plasma).
The terminal half-life of COc1nnc2ccc(N3CCC(c4ccc(OCCN5CCN(C)C(=O)[C@H]5C)cc4)CC3)nn12 is reported as 1.89 h (patients, plasma; oral, 15 mg twice daily, multiple dose, monotherapy).
C[C@H]1CN(C(=O)CC#N)[C@]12CCN(c1ncnc3[nH]ccc13)C2 has a Cmax of 956 ng/mL (healthy Japanese males; oral, 100 mg single dose, mean).
For O=C1CCc2ccc(OCCCCN3CCN(c4cccc(Cl)c4Cl)CC3)cc2N1, “adverse event incidence” read 7% (refers to: Xerostomia; patients, CYP2D6 normal metabolizers; dose not given, long-acting oral or depot).
N#Cc1ccc2c(c1)[C@H]1CCCN(C(=O)c3ccc4[nH]cnc4c3)[C@H]1C2 — result for “ACTH level change”: 2.2 pmol/L (human; 80 mg, day 15; relative to: baseline).
Under “participants with TEAE”, Cc1ccc(Sc2ccccc2N2CCNCC2)c(C)c1 is recorded as 0% (refers to: eosinophil count increased; healthy adult men; oral, 20 mg daily, 12 days).
O=C(O)CCC(=O)O.[2H]C([2H])([2H])Oc1cc(C)c2[nH]ccc2c1CN1CC[C@@H](C2CC2)C[C@H]1c1ccc(C(=O)O)cc1: “subjects with elevated bilirubin TEAE” 12.5% (multiple ascending dose; healthy Chinese subjects; 100 mg twice daily).
With CCn1cc(C(=O)N2CCOCC2)c(=O)c2cc(NC3Cc4ccccc4C3)cnc21 the half-life was 5.76 h (human, fed; oral suspension, 2000 mg/day twice daily, day 8, arithmetic mean).
For Cc1ccc(O)c(-n2nc3ccccc3n2)c1, “daily dermal exposure dose” read 3740 ng/kg/day (human aged 11-16 years; concentration not given, sunscreen, 95th percentile).
CC(C)(C(=O)N1CCOc2c(C#N)cncc2C1)C(F)F: “subjects with adverse event” 0% (refers to: disturbance in attention; human; oral, 15 mg twice daily, 14 days, multiple ascending dose).
CO[C@H]1/C=C/O[C@@]2(C)Oc3c(C)c(O)c4c(O)c(c(/C=N/N5CCN(C)CC5)c(O)c4c3C2=O)NC(=O)/C(C)=C\C=C\[C@H](C)[C@H](O)[C@@H](C)[C@@H](O)[C@@H](C)[C@H](OC(C)=O)[C@@H]1C: “nervous system adverse events” 33.3% (healthy humans; oral, dose not given).
For C=CCN1CC(=O)N2[C@@H](Cc3ccc(O)cc3F)C(=O)N(Cc3cccc(N4CC(N5CCN(CC)CC5)C4)n3)C[C@@H]2N1C(=O)NCc1ccccc1, “treatment-related adverse events” read 10.5% (refers to: Malaise; advanced solid tumour patients; all doses, expansion part, any grade).
C[C@@H](Nc1cc(F)cc(F)c1)c1cc(C(=O)N(C)C)cc2c(=O)cc(N3CCOCC3)oc12 — result for “patients discontinuing for AE”: 0% (CTCAE v4, refers to: pulmonary embolism; patients with advanced solid tumours; oral, dose not given, phase I dose expansion).
CCc1cc(C(=O)NC)c2nccc(N3CCc4c(cc(Cn5ccnc5)cc4-c4cn(C)nc4C(F)(F)F)C3=O)c2c1 — result for “mean corpuscular volume”: 65.1 ± 1.59 fL (Sprague Dawley rats; oral, 100 mg/kg twice daily, 7 days).
Cc1c(Cl)c(C)[n+]([O-])c(Cl)c1-c1noc(-c2cc(O)c(O)c([N+](=O)[O-])c2)n1 — result for “adverse drug reaction incidence”: 0% (refers to: Presyncope; healthy Chinese subjects; oral, 100 mg, 4 days).
With N#Cc1ccc(C(c2ccc(C#N)cc2)n2cncn2)cc1 the tumour concentration was 90 ± 17.7 ng/g (human patients, tumour tissue at surgery; 10 mg daily).
Cc1cc(-c2nccc3c2ccn3CC(=O)Nc2ccc(-c3cnccn3)cn2)ccn1 — result for “subjects with eye disorders TEAEs”: 11.1% (human; MAD part, 15 mg once daily).
For Cn1cc(-c2cn3nccc3c(-c3cnn([C@]4(CC#N)C[C@@H](C#N)C4)c3)n2)cn1, the average concentration was 620 ng/mL (healthy humans fed, plasma; 1200 mg once daily, day 10, geometric mean).
The elimination half-life of Cc1nn(C)cc1S(=O)(=O)NC(=O)c1ccc(-n2ccc(OCC(C)(C)C(F)(F)F)n2)nc1N1C[C@@H](C)CC1(C)C is reported as 27.7 h (human, plasma; standard ETI dose).
N=C(N)NCCNC(=O)C1(Nc2ccccc2)CCN(Cc2ccccc2)CC1: “mean residence time” 0.1 h (male Sprague-Dawley rats, plasma; intravenous, 2.5 mg/kg).
Under “geometric mean ratio”, Cc1ccc(C)c(OCCCC(C)(C)C(=O)O)c1 is recorded as 0.67 (refers to: Cmax; human subjects, plasma; oral, dose not given, added: lopinavir-ritonavir; relative to: with over without lopinavir-ritonavir).
For C[C@H]1O[C@@H](O[C@H]2[C@@H](O)C[C@H](O[C@H]3[C@@H](O)C[C@H](O[C@H]4CC[C@@]5(C)[C@H](CC[C@@H]6[C@@H]5C[C@@H](O)[C@]5(C)[C@@H](C7=CC(=O)OC7)CC[C@]65O)C4)O[C@@H]3C)O[C@@H]2C)C[C@H](O)[C@@H]1O, “subjects with adverse event” read 0% (refers to: nausea; healthy men; oral, dose not given, 8 days, treatment-emergent, crossover trial).
C=CC(=O)NC1CCN(c2ncc3ncnc(Nc4ccc(Oc5ccc6c(c5)ncn6C)c(C)c4)c3n2)CC1: “adverse events incidence” 0% (refers to: gingival bleeding; human male; oral, dose not given, CTCAE on-treatment AEs).
NC(CO)(CO)CCc1ccc(Sc2cccc(OCc3ccccc3)c2)cc1Cl — result for “pulse rate AUEC, median”: 1340 h×bpm (human, supine; oral, 3 mg, 0 to 24 h, added: cyclosporin 100 mg).
Cc1cc(-c2nnc(N)nc2-c2ccc(F)cc2)cc(Cl)n1: “patients with immune-mediated AE” 0% (refers to: Hyperthyroidism; IO-naive colorectal cancer patients; oral, dose not given, treatment-related, grade ≥3).
CNCc1ccc(-c2[nH]c3cc(F)cc4c3c2CCNC4=O)cc1 — result for “AST/ALT increased incidence”: 11.5% (human patients; oral, 600 mg twice daily, grade 2).
For CCc1nc(C(N)=O)c(Nc2ccc(N3CCC(N4CCN(C)CC4)CC3)c(OC)c2)nc1NC1CCOCC1, the Cmax was 31.2 ng/mL (Japanese patients, plasma; oral, 40 mg, cycle 0 day -2, single dose, median).
For NCCONC(=O)[C@@H]1CC[C@@H]2CN1C(=O)N2OS(=O)(=O)O, “number of Mild TRAE events” read 1 (healthy Chinese male subjects; intravenous, 2 g).
NC1(C(=O)N[C@@H](CCO)c2ccc(Cl)cc2)CCN(c2nc[nH]c3nccc2-3)CC1 — result for “incidence of Dysgeusia”: 0% (metastatic CRPC patients; 400 mg b.i.d., grade 3 to 4, treatment-related, added: enzalutamide 160 mg daily).
For Cn1cc([C@H]2C[C@H]3CSC(N)=N[C@@]3(c3ccc(F)cc3F)CO2)cn1, the plasma concentration was 3.31 µM (male 129/SVE mouse, plasma; subcutaneous, 50 mg/kg, 9 h).

Excerpt of the above:
Under “participants with TEAE”, Cc1ccc(Sc2ccccc2N2CCNCC2)c(C)c1 is recorded as 0% (refers to: eosinophil count increased; healthy adult men; oral, 20 mg daily, 12 days).
N=C(N)NCCNC(=O)C1(Nc2ccccc2)CCN(Cc2ccccc2)CC1: “mean residence time” 0.1 h (male Sprague-Dawley rats, plasma; intravenous, 2.5 mg/kg).
With COc1ccc2c(=O)n(C)c(-c3ccccc3)nc2c1 the tissue/plasma ratio was 28.6 (Sprague-Dawley rat, male, liver; oral, 30 mg/kg, 2 h; relative to: liver over plasma).
O=C(O)CCC(=O)O.[2H]C([2H])([2H])Oc1cc(C)c2[nH]ccc2c1CN1CC[C@@H](C2CC2)C[C@H]1c1ccc(C(=O)O)cc1: “subjects with elevated bilirubin TEAE” 12.5% (multiple ascending dose; healthy Chinese subjects; 100 mg twice daily).
The terminal half-life of COc1nnc2ccc(N3CCC(c4ccc(OCCN5CCN(C)C(=O)[C@H]5C)cc4)CC3)nn12 is reported as 1.89 h (patients, plasma; oral, 15 mg twice daily, multiple dose, monotherapy).
NC(CO)(CO)CCc1ccc(Sc2cccc(OCc3ccccc3)c2)cc1Cl — result for “pulse rate AUEC, median”: 1340 h×bpm (human, supine; oral, 3 mg, 0 to 24 h, added: cyclosporin 100 mg).
